Results gathered from unrelated publications.
Numbered parts are unrelated; each lists some results of a single study.

Set 1
Target: RNA binding protein fox-1 homolog 2, RRM domain, GST-SBP tag (RBFOX2, Homo sapiens, UniProt O43251-10, residues 100-194)
Method: RNA Bind-n-Seq
Form: RNA
Medium: in vitro
Concentration: 365 nM
Notes: natural RNA segment, single round, ends assumed
Baseline: no-protein control
Direction: higher = stronger binding
Endpoint: RBNS enrichment (R)
Construct (chain): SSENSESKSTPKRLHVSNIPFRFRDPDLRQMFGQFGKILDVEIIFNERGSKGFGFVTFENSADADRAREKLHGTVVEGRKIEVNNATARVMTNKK
Strand = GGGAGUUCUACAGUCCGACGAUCAUGUCAACAGCCAUGGUGAACCAGAUCUGGGCAGGGUUCCCCAAACUCUAUUCAACCAGAGUUUUAUCACGCACCUCAUCGGGUCUCUCCUGGUUGCUGCCCCGAGGUGAUGGAAUUCUCGGGUGCCAA; result = 0.335
Strand = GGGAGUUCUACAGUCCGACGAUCUGCAGUCCCAAAAUUAGGGGUCCUUCAGUCUUGGAGACUAUAAGGGAGCCUCUGCACCCAGGGAAAAUGUUACCCUUUACAGGGGGGAAGGGUAAACCAGUAGGGAAUACUGGAAUUCUCGGGUGCCAA; result = 0.562
Strand = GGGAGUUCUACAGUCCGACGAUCCAGCUAUGAAAGCUUUGCUUACUGGGAUGGAUGGGGGCAGACAAGAGGACAGUAGGGAAUCUGCCGAGGUGCCCGCACGUACUUUAGUGAGUUUAGCCAAACUAACAGCAUGGAAUUCUCGGGUGCCAA; result = 1.37
Strand = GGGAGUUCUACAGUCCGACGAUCCACCCCGGUAUGAAUGUGUUUCCUCCACAUUGUAUAUCCUUCCACCCUCUGGCUGCCUAGAUCAGUAAAUAAAAUUGAUGUAAUAUAAUUUAUAAGUAACACUGUUGAAAUGGAAUUCUCGGGUGCCAA; result = 0.607
Strand = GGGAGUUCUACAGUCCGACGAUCGUAAUGUAUAUAGUCGUAUAUGUAUUCUAGCAAGAAAAACAUAUUUAUUUUGACAAAGGGGAACACUGACUUUCUGAAGGAUUCAGAAAGAACCUUAGUGAAAGGUUCUCUGGAAUUCUCGGGUGCCAA; result = 0.414
Strand = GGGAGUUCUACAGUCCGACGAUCUGCGUGCCUGGACUCAGGAGCAUAGAAAAGACAAUUGUGGAUUGGGCCACACUGGCCUAGCCUGAACCUAGAUCCCUAACCCUGGGCUGGGUGAGGCUCACCUGCCCAGGUGGAAUUCUCGGGUGCCAA; result = 0.301
Strand = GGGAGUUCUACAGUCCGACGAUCGUAUUGAUGUCACUCUGGUGCCUUAGAAGUCAGUCGUCCUUGGGAAGGUGUCUGCGAGACUGGGCCCUUUCUUCUCUCCAGAGCAGGAUGCCUGGUGCUCUUGCUAUUCUUGGAAUUCUCGGGUGCCAA; result = 0.321
Strand = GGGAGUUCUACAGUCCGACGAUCCUACAAAGAGAGAGGUGGCCCCCCUUUCUUGACCUCCUCCUCCUUCAAGCUCAAACACCACCUCCCUUAUUCAGGACCGGCACUUCUUAAUGUUUGUGGCUUUCUCUCCAUGGAAUUCUCGGGUGCCAA; result = 0.545
Strand = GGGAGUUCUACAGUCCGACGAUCGUGCUUUGUAAUCUCUGCUUGAGUGUUGCCCAUACUGGGCUGUGGCUUUGAAGGUCAUUUGCACAAGAGCACGUGACCCAGAGAUGGAGAAGUGAGGUUCAGGGAGGGUGUGGAAUUCUCGGGUGCCAA; result = 0.276

Set 2
Target: Interferon regulatory factor 7, full length, phosphomimetic (IRF7, Homo sapiens, UniProt Q92985, residues 1-503, S101K/S471D/S472D/S475D/S476D/S477D/S483D/S484D/S487D)
UniProt Q92985, sequence (whole entry, unmodified, looked up): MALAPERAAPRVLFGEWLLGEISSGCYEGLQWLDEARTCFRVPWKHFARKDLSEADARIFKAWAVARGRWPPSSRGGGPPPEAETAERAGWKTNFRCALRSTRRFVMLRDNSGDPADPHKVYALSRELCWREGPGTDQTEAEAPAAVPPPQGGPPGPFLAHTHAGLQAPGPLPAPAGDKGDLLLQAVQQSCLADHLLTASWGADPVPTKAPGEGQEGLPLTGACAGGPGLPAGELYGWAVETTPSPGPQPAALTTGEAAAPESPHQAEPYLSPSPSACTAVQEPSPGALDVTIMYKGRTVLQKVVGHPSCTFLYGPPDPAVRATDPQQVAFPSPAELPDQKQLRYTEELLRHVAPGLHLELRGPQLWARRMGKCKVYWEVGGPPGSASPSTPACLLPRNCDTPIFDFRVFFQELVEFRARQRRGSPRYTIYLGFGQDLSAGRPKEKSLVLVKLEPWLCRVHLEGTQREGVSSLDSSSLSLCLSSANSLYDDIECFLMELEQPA
Method: protein-binding microarray
Form: double-stranded DNA, one strand shown
Medium: in vitro
Concentration: 250 nM
Notes: 60-bp whole probe
Together with: salmon DNA 0.4 mg/ml
Baseline: random background probes
Direction: higher = stronger binding
Endpoint: log fluorescence
Shared flanks, not repeated: GCCTAGCAC … GTCTTGATTCGCTTGACGCTGCTG
Strand = ATAGGTATCCTTATCCTTTAGTGCTAG; result = 0.519 z-score
Strand = TTAGGTCTCCTACTCCTTTAGTGCTAG; result = -0.036 z-score
Strand = GTCGATTCCAGTTTCGAGACGTGCTAG; result = 5.92 z-score
Strand = TTAGGTATCCTTTTGCTTTAGTGCTAG; result = 1.19 z-score
Strand = TTAGGACTGCTTTTACTTTAGTGCTAG; result = 0.918 z-score
Strand = AACGGTTTCCTTTTCCTGACGTGCTAG; result = 7.1 z-score
Strand = TTGGGTTTCCTTTCCCTTTAGTGCTAG; result = 3.9 z-score
Strand = AGCTACTGAGTGGCAACACAGTGCTAG; result = -1.02 z-score
Strand = CCTTTTTTTTTTTTTCTGATGTGCTAG; result = 1.32 z-score
Strand = TTAGGTCTCGGTATCGGTAAGTGCTAG; result = 2.58 z-score
Strand = GACGGTCTCCTTATCCTGACGTGCTAG; result = 0.25 z-score
Strand = GACGGACTGGAGTATCGGGACGTGCTA; result = -0.456 z-score
Strand = GACGGTTCCCTTTTCCAGACGTGCTAG; result = 2.91 z-score
Strand = GACGAAATCGGGACTGGAGACGTGCTA; result = -0.454 z-score
Strand = TTAGGTTTCTGGTTTCGGTTAGTGCTA; result = 10.6 z-score
Strand = TTAGGTATCCTTACCCTTTAGTGCTAG; result = -0.0539 z-score
Strand = TTAGATATCGGCACTGGATTAGTGCTA; result = -0.113 z-score
Strand = TTAGGTTTCGGTCTCGGTTTGTGCTAG; result = 9.9 z-score
Strand = TCACCACTCTTTCCTCACACTGTGCTA; result = 0.654 z-score
Strand = CTAGGTATCCTTATCCTTTAGTGCTAG; result = 0.899 z-score
Strand = TCATATCACTATTCTAGGACTGTGCTA; result = 0.691 z-score

Set 3
Target: Prothrombin, mature alpha-thrombin (F2, Homo sapiens, UniProt P00734)
Method: aptamer microarray, sandwich
Form: DNA with 2'F-ANA
Medium: in vitro
Concentration: 200 nM
Notes: whole 15-mer aptamer, many near background
Together with: Cy3 exosite-II aptamer, 400 nM
Direction: higher = stronger binding
Endpoint: mean fluorescence intensity
Strand: GGTTGGTGTGGTTGG
Modification = 2'F-ANA at 1 3 10 12 13 14 15; result = 63.8 a.u.
Modification = 2'F-ANA at 4 6 15; result = 277 a.u.
Modification = 2'F-ANA at 1 2 3 4 7 8 9; result = 164 a.u.
Modification = 2'F-ANA at 3 4 5 6 8 9 10 11 13; result = 52.2 a.u.
Modification = 2'F-ANA at 5 6 10 11 12 13; result = 47.3 a.u.
Modification = 2'F-ANA at 1 4 6 9 10 11 12 13 14 15; result = 48.2 a.u.
Modification = 2'F-ANA at 3 5 9 10 11 12; result = 66 a.u.
Modification = 2'F-ANA at 7 8 10 11 12 14; result = 126 a.u.
Modification = 2'F-ANA at 2 3 5 7 10 11 12 14 15; result = 88.8 a.u.
Modification = 2'F-ANA at 2 6 8 9 10 11 13 14; result = 83.1 a.u.
Modification = 2'F-ANA at 1 3 5 6 7 9 10 11 12; result = 49 a.u.
Modification = 2'F-ANA at 4 7 9 10 12 13; result = 93.9 a.u.
Modification = 2'F-ANA at 2 3 4 6 8 9 12 14 15; result = 257 a.u.
Modification = 2'F-ANA at 2 3 4 5 7 8 9 10 15; result = 55.3 a.u.
Modification = 2'F-ANA at 1 2 6 7 8 9 10 11 12 14; result = 50.1 a.u.
Modification = 2'F-ANA at 1 2 3 4 7 8 9 10 14 15; result = 51.1 a.u.
Modification = 2'F-ANA at 3 5 6 7 9 13 14 15; result = 49.3 a.u.
Modification = 2'F-ANA at 2 4 6 11 12 13 14 15; result = 88 a.u.
Modification = 2'F-ANA at 1 2 3 5 7 14; result = 47.5 a.u.
Modification = 2'F-ANA at 1 2 3 5 6 7 9 10 12; result = 52.1 a.u.
Modification = 2'F-ANA at 3 4 6 8 10 11 14 15; result = 143 a.u.
Modification = 2'F-ANA at 1 4 5 7 8 9 10 11 12 13 14; result = 42.7 a.u.
Modification = 2'F-ANA at 2 4 6 7 9 10 15; result = 77.5 a.u.
Modification = 2'F-ANA at 4 7 8 9 12 14; result = 140 a.u.
Modification = 2'F-ANA at 1 3 7 8 9 10 12; result = 125 a.u.

Set 4
Target: RING finger protein unkempt homolog, zinc fingers 1-6, GST-SBP tag (UNK, Homo sapiens, UniProt Q9C0B0, residues 30-357)
UniProt Q9C0B0, sequence (30-357, looked up): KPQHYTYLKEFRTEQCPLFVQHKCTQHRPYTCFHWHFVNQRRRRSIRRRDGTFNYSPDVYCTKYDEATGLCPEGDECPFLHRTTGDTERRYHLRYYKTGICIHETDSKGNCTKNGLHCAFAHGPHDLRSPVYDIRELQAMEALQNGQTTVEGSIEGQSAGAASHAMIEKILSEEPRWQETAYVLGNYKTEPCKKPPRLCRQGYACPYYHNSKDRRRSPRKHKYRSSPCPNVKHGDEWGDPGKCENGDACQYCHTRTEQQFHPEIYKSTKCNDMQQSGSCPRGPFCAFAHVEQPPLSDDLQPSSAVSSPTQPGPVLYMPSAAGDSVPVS
Method: RNA Bind-n-Seq
Form: RNA
Medium: in vitro
Concentration: not given
Notes: RNA with constant flanks, human and mouse sites, ends assumed
Baseline: input RNA pool
Direction: higher = stronger binding
Endpoint: bound/input enrichment
Strand = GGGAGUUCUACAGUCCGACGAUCUCGUGCACAUGUGUUCCCCUAAAGGUUGGGGAGCCUCGCUGUGUCUUGCUGUUCCCAGGCACCACCACAGCAGGUGCUGCCAUACUCUUGUGGUCUCUGUGCGCCCCCCCCCCCCCCCCACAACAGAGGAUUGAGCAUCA; result = 0.253 ratio
Strand = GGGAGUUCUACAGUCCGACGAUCGGUGAUUAUAGCAAUCAGCAGAGUGGUUAUGGGAAAGUAUCCAGGCGAGGUGGACAUCAAAAUAGCUACAAACCAUACUAAAUUAUUCCAUUUGCAACUUAUCCCCAACAGGUGGUGAAGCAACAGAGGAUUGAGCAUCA; result = 1.84 ratio
Strand = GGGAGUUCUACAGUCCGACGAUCCAGACAGAAGUAGUGAUCCGAGACAUUGACGAGAGGGCUAUGGAAUUACUGAUUGACUUUGCGUAUACCUCCCAGAUAACAGUAGAAGAGGGCAAUGUUCAGACUCUUCUGCCAGCUGCUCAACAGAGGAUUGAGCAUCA; result = 0.152 ratio
Strand = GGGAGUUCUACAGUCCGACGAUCCUGAGUGGGGAAGGAAAUGUGACCUUCAAUGGUCACAAAGCAGCUAUCACUACCUUGAAGUAUGAUCAGCUAGGAGGCAGACUGGCAUCUGGGUCCAAGGACACAGAUAUUAUUGUAUGGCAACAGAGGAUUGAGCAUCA; result = 0.208 ratio
Strand = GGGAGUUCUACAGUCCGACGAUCCAGAUGAUUCUUGACAAGAAAUUUCAUGGGAUUUUGGACCAGGGGGAGGGUGUCCUGAUUAUUUUCGAUGAACCCCCAGUAGAUAAAACUUACGAAGCUGCUCUGGAAACAAUUCAGAACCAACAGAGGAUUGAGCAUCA; result = 0.718 ratio
Strand = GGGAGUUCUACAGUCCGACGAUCGCUUUUAAUGGAGUUAUGUUUGGAGACAGGCCACUGAAAAUAAAUCACUCCAACAAUGCAAUAGUAAAACCUCCUGAGAUGACACCUCAGGCUGCAGCUAAGGAGUUAGAAGAAGUAAUGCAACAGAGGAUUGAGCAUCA; result = 1.92 ratio
Strand = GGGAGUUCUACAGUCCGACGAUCGAACACAGUAUGUAGGUCAAACUGGCAGUAACAGUGUACAGCCUUUGACAAACUAGAAAUAUUAGAGUAGGCCAAACACACCUCCAAACUGUAAGGCUGUGCACAAACAUAAAAAAUGGCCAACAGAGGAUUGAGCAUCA; result = 6.59 ratio
Strand = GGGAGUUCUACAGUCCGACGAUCCUCCUUCAGGACAUUAUUCUCCAAGUAUUUAAAUAUUUGCCUCUUCUUGACCGGGCUCAUGCUUCACAAGUUUGCCGCAACUGGAACCAGGUAUUUCACAUGCCUGACUUGUGGAGAUGUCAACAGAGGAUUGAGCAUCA; result = 0.286 ratio

A few entries again (set 3):
Modification = 2'F-ANA at 2 6 8 9 10 11 13 14; result = 83.1 a.u.
Modification = 2'F-ANA at 2 3 4 6 8 9 12 14 15; result = 257 a.u.
Modification = 2'F-ANA at 2 4 6 11 12 13 14 15; result = 88 a.u.
Modification = 2'F-ANA at 2 4 6 7 9 10 15; result = 77.5 a.u.
Modification = 2'F-ANA at 1 2 3 4 7 8 9 10 14 15; result = 51.1 a.u.
Modification = 2'F-ANA at 5 6 10 11 12 13; result = 47.3 a.u.
